Results collected from several papers.
Compare with care: the assays were run in different laboratories. Several values in a cell are separate wells, animals, samples, runs or records. ± gives the spread as reported.

SMILES	assay	system	setting	how to read	quantity	result
C[C@]1(CO)Cc2ncn(-c3ccc(C#N)c(Cl)c3)c2C(=O)O1		human	2 mg single dose		subjects with drug-related orthostatic hypotension	16.7%
N[C@@H]1c2ccccc2OC12CCN(c1cnc3c(N4CCCc5ncccc54)n[nH]c3n1)CC2		patients advanced metastatic solid tumours	oral, dose not given, dose escalation total		incidence grade ≥3 serious TEAE	27.8%
NC(=O)[C@H]1CCN(c2ncnc(N)c2F)C[C@@H]1N1CCC[C@@H](Nc2cc(Cl)cc(C(F)(F)F)c2)C1=O		B-cell malignancy patients	oral, 328 mg twice daily, dose		grade ≥3 hyponatraemia	0%
CCc1ccc(CC/C=C/c2ccc3c(c2)C(=O)CC3)cc1		Sprague-Dawley rat, female	oral, 120 mg/kg/day, 14 days		Phosphorus	2.41 mM
COc1ccc(-c2c(-c3ccc(C#N)c(F)c3)nc(N3CCC(N)CC3)n(C)c2=O)cc1F	refers to: Anemia	human patients	oral, dose not given, any grade, dose escalation, NG		treatment-related adverse event incidence	2%
CC(=O)c1c(C)c2cnc(Nc3ccc(C4CCN(CCS(C)(=O)=O)CC4)cn3)nc2n(C2CCCC2)c1=O		HR+/HER2- advanced breast cancer patients	oral, dose not given, all grades		blood creatinine increased	21.1 % patients
CC(C)C[C@H](NC(=O)[C@H](CCCCN)NC(=O)OCC1c2ccccc2-c2ccccc21)C(=O)N[C@H](C(=O)N[C@@H](Cc1ccccc1)C(=O)N[C@@H](Cc1ccccc1)C(=O)N[C@@H](CCCCN)C(=O)NCC(=O)N[C@@H](Cc1ccccc1)C(=O)N[C@@H](C)C(=O)N[C@@H](Cc1c[nH]c2ccccc12)C(=O)N[C@@H](CC(N)=O)C(=O)N[C@H](C(=O)N[C@H]1CSSC[C@@H](C(=O)N[C@@H](Cc2c[nH]cn2)C(=O)N[C@@H](CCCNC(=N)N)C(=O)N[C@@H](CCCNC(=N)N)C(=O)N[C@@H](C)C(=O)N[C@@H](CC(N)=O)C(N)=O)NC(=O)[C@H](C(C)C)NC(=O)[C@H](CCCNC(=N)N)NC(=O)[C@H](C(C)C)NC(=O)CNC(=O)[C@H](CC(N)=O)NC(=O)[C@H](CCCNC(=N)N)NC(=O)[C@H](Cc2ccc(O)cc2)NC(=O)[C@H](C(C)C)NC1=O)C(C)C)C(C)C		ICR mouse	ip, 10 mg/kg	direction not given	tremor score	0
Oc1ccc(CCc2cc(O)cc(O)c2)cc1		human, both sexes, plasma			samples above LOQ	23.3%
O=C(Nc1ccccc1)C1CCN(C(=O)Oc2cccnc2)CC1	refers to: Constipation	healthy female human	concentration not given, all doses pooled		adverse event incidence	4%
CN1CC[C@@H](c2c(O)cc(O)c3c(=O)cc(-c4ccc(C(F)(F)F)cc4Cl)oc23)[C@@H]1CO	refers to: Hypotension	relapsed B-cell malignancies	oral, 100 mg, grade 3-4, intermittent dosing		patients with adverse event	0%
CC(C)Nc1ccnc(Nc2cccc(-c3cccnc3)c2)n1	refers to: ALT	mouse, blood	intraperitoneal, 5 mg/kg		blood chemistry	45 U/L
Nc1ncnc2c1ncn2[C@@H]1O[C@@H]2COP(=O)([S-])O[C@@H]3[C@H](O)[C@@H](COP([O-])(=S)O[C@H]2[C@H]1O)O[C@H]3n1cnc2c(N)ncnc21.[Na+].[Na+] (stereo partly drawn)		non-tumor-bearing mice, blood	intravenous, 1 mg/kg, toxicity study		MCHC	594 ± 7 g/L
COc1ncccc1-c1cnn2ccc(N3CCN(C(=O)OC(C)C)CC3)nc12		mouse SNL model, plasma	oral, 30 mg/kg, 30 min		concentration	8200 nM
[Cl][212Pb][Cl]	refers to: 212Pb	athymic mouse, C4-2 prostate xenograft, spleen	intravenous, 2 h, below quantification limit		tissue uptake	0.99 ± 0.48 %ID/g
COc1cc2c(Oc3ccc4[nH]c(C)cc4c3F)ccnc2cc1OCC1(N)CC1		paediatric recurrent refractory sarcoma	12 mg		grade 1 or 2 Headache	27.3%
CC(C)(C)c1cc(-n2nc3ccccc3n2)c(O)c(C(C)(C)C)c1		human aged 21-60 years	concentration not given, sunscreen, 95th percentile		daily dermal exposure dose	5.06 ng/kg/day
CC[C@H](C)[C@H](NC(=O)[C@H](Cc1ccccc1)NC(=O)[C@H](CCC(=O)O)NC(=O)[C@H](CCCNC(=N)N)NC(=O)[C@H](C)NC(=O)[C@H](C)NC(=O)[C@H](CCC(N)=O)NC(=O)[C@H](CCC(=O)O)NC(=O)[C@H](CCC(=O)O)NC(=O)[C@H](CC(C)C)NC(=O)[C@H](Cc1ccc(O)cc1)NC(=O)[C@H](CO)NC(=O)[C@H](CO)NC(=O)[C@@H](NC(=O)[C@H](CC(=O)O)NC(=O)[C@H](CO)NC(=O)[C@@H](NC(=O)[C@H](Cc1ccccc1)NC(=O)[C@@H](NC(=O)CNC(=O)[C@H](CCC(=O)O)NC(=O)[C@H](C)NC(=O)CCc1cnc[nH]1)[C@@H](C)O)[C@@H](C)O)C(C)C)C(=O)N[C@@H](C)C(=O)N[C@@H](Cc1c[nH]c2ccccc12)C(=O)N[C@@H](CC(C)C)C(=O)N[C@H](C(=O)N[C@@H](CCCNC(=N)N)C(=O)NCC(=O)N[C@@H](CCCNC(=N)N)C(=O)N[C@@H](CCCCNC(=O)COCCOCCNC(=O)COCCOCCNC(=O)CC[C@H](NC(=O)CCCCCCCCCCCCCCCCC(=O)O)C(=O)O)C(=O)NCC(=O)NCC(=O)N[C@@H](CO)C(=O)N[C@@H](CCSC)C(=O)N[C@H](C(=O)N[C@@H](CCCCNc1c(NCCCCCN(O)C(=O)CCC(=O)NCCCCCN(O)C(=O)CCC(=O)NCCCCCN(O)C(C)=O)c(=O)c1=O)C(=O)O)C(C)C)C(C)C [zirconium-89 labelled]	ex vivo gamma counting	male Sprague-Dawley rats, liver	intravenous, 1 nmol, 24 h, mean of 3 animals		tissue uptake	2.11 %ID/g
O=c1ccc2cc3ccoc3cc2o1	post-procedure stability	rat plasma	8 ng/mL, 1 h, room temperature		accuracy	87.3%
O=c1cc(-c2ccc(O)c(O)c2)oc2cc(O)cc(O)c12		Sprague-Dawley rat, male, obese, faeces	oral, 100 mg/kg neohesperidin, 48 h		cumulative faecal excretion	211.1 ± 1.23 ng
O=C(Nc1ccccc1)C1CCN(C(=O)Oc2cccnc2)CC1		healthy women	oral, 100 mg, 9 days		adverse event Agitation	0%
O=C(O)CCCOc1ccc(F)cc1-c1cc(-c2ccccc2C(F)(F)F)n(-c2ccccc2)n1	refers to: CRE	Crl:CD(SD) rats, female, blood	iv, 25 µg/kg, 1 day		blood chemistry	0.36 ± 0.03 mg/dL
C#CC[C@H](NC(=O)[C@H](Cc1ccccc1)NC(=O)CCNC(=S)Nc1ccc2c(c1)C(=O)OC21c2ccc(O)cc2Oc2cc(O)ccc21)C(=O)N[C@@H](C)C(=O)N[C@@H](CC(C)C)C(=O)N[C@@H](CC(=O)O)C(=O)N[C@@H](Cc1c[nH]c2ccccc12)C(=O)N[C@@H](CO)C(=O)N[C@@H](Cc1c[nH]c2ccccc12)C(=O)N[C@@H](CC(C)C)C(=O)N[C@@H](CCC(N)=O)C(=O)N[C@H](C(=O)N[C@@H](CCC(=O)O)C(N)=O)[C@@H](C)O	dynamic light scattering	PBS/DMSO	10 nM		hydrodynamic diameter	359 ± 107 nm
O=C(c1ccc(F)c(F)c1Nc1ccc(I)cc1F)N1CC(O)([C@@H]2CCCCN2)C1		human patients	oral, 1 mg/kg, age ≥18 years		treatment-related adverse events	100%
CO[C@H]1C[C@@H]2CC[C@@H](C)[C@@](O)(O2)C(=O)C(=O)N2CCCC[C@H]2C(=O)O[C@H]([C@H](C)C[C@@H]2CC[C@@H](OC(=O)NCCOCCOCCOCCOCCOCCOCCOCCOCCC(=O)N3CCc4cc(Cn5nc(-c6ccc7oc(N)nc7c6)c6c(N)ncnc65)ccc4C3)[C@H](OC)C2)C[C@@H](O)[C@H](C)/C=C(\C)[C@@H](O)[C@@H](OC)C(=O)[C@H](C)C[C@H](C)/C=C/C=C/C=C/1C	phase 1 dose escalation, refers to: decreased appetite	advanced solid tumour patients	intravenous, 6 mg weekly, any grade		TRAE incidence	66.7%
CCCCCOc1ccc(-c2ccc(-c3ccc(C(=O)N[C@H]4C[C@@H](O)[C@@H](OCC[N+](C)(C)C)NC(=O)[C@@H]5[C@@H](O)[C@@H](C)CN5C(=O)[C@H]([C@@H](C)O)NC(=O)[C@H]([C@H](O)[C@@H](O)c5ccc(O)cc5)NC(=O)[C@@H]5C[C@@H](O)CN5C(=O)[C@H]([C@@H](C)O)NC4=O)cc3)cc2)cc1		adult patients in ICU, plasma	intravenous, 400 mg loading, after first dose, mean		AUC(0-168 h)	760 µg·h/mL
c1ccc2[nH]cnc2c1			pH 7.4		logD (chromatographic)	0.61
N#C[C@@]1(n2ccc(N)nc2=O)O[C@H](CO)[C@@H](O)[C@H]1O		CD-1 mouse, brain	intravenous, dose not given, 7 h		concentration	440 nM and 150 nM and 210 nM

For quick reference, copied from above:
SMILES	assay	system	setting	how to read	quantity	result
CCCCCOc1ccc(-c2ccc(-c3ccc(C(=O)N[C@H]4C[C@@H](O)[C@@H](OCC[N+](C)(C)C)NC(=O)[C@@H]5[C@@H](O)[C@@H](C)CN5C(=O)[C@H]([C@@H](C)O)NC(=O)[C@H]([C@H](O)[C@@H](O)c5ccc(O)cc5)NC(=O)[C@@H]5C[C@@H](O)CN5C(=O)[C@H]([C@@H](C)O)NC4=O)cc3)cc2)cc1		adult patients in ICU, plasma	intravenous, 400 mg loading, after first dose, mean		AUC(0-168 h)	760 µg·h/mL
c1ccc2[nH]cnc2c1			pH 7.4		logD (chromatographic)	0.61
N#C[C@@]1(n2ccc(N)nc2=O)O[C@H](CO)[C@@H](O)[C@H]1O		CD-1 mouse, brain	intravenous, dose not given, 7 h		concentration	440 nM and 150 nM and 210 nM
